Measurements pooled from the literature.
Protocols differ between the studies behind these lines.
Organism: Staphylococcus aureus

CC[C@H](C)[C@H](N)C(=O)N[C@@H](CC(C)C)C(=O)NCC(=O)N[C@H](CCCCN)C(=O)N[C@H](C(=O)N[C@@H](Cc1c[nH]c2ccccc12)C(=O)N[C@@H](CCCCN)C(=O)NCC(=O)N[C@H](C(=O)N[C@@H](CCCCN)C(=O)N[C@@H](CC(=O)O)C(=O)N[C@H](C(=O)N[C@@H](CC(C)C)C(N)=O)[C@@H](C)CC)[C@@H](C)CC)[C@@H](C)CC — MIC (broth microdilution; MRSA ATCC 33591, Mueller-Hinton broth; 16 h, 37 °C): > 100 µM
CC[C@H](C)[C@H](NC(=O)[C@H](CCCCN)NC(=O)[C@H](CCCCN)NC(=O)CNC(=O)[C@H](CCCCN)NC(=O)[C@H](CC(C)C)NC(=O)[C@H](CCCCN)NC(=O)[C@H](CCCNC(=N)N)NC(=O)[C@@H](NC(=O)[C@H](CC(C)C)NC(=O)[C@H](CCCNC(=N)N)NC(=O)[C@@H](N)CCCNC(=N)N)[C@@H](C)CC)C(=O)N[C@@H](Cc1ccc(O)cc1)C(=O)N[C@@H](CC(C)C)C(=O)N[C@@H](Cc1ccc(O)cc1)C(=O)N[C@@H](Cc1ccccc1)C(=O)N[C@@H](CCCCN)C(=O)N[C@@H](CC(C)C)C(=O)N[C@@H](CCC(N)=O)C(=O)N[C@@H](CC(C)C)C(=O)N[C@@H](CC(C)C)C(=O)N[C@@H](CCCCN)C(=O)N[C@@H](CCCCN)C(N)=O — MIC (CCARM 3089, methicillin-resistant, Mueller-Hinton broth; 24 h): 8 µM
CC[C@H](C)[C@H](NC(=O)CN)C(=O)N[C@@H](CC(C)C)C(=O)N[C@@H](CC(=O)O)C(=O)N[C@@H](C)C(=O)N[C@H](C(=O)N[C@@H](CCCCN)C(=O)N[C@@H](C)C(=O)N[C@H](C(=O)N[C@@H](C)C(=O)N[C@@H](CCCCN)C(=O)N[C@@H](C)C(=O)N[C@H](C(=O)N[C@@H](CCCCN)C(=O)N[C@@H](C)C(=O)N[C@@H](CCCCN)C(=O)N[C@@H](C)C(=O)NCC(N)=O)[C@@H](C)CC)[C@@H](C)CC)[C@@H](C)CC — MIC (ATCC 29213, Mueller-Hinton broth; 12 h, 37 °C): 4 µg/mL
COc1ccnc(NC(=S)N2CCN(c3ncc(C(F)(F)F)cc3Cl)CC2)c1 — MIC (MRSA USA300-FPR3757, clinical): 1.2 µM
Cn1c(=O)ccc2ccc(F)c(CCNC[C@H]3CN(c4ccc5c(n4)NC(=O)CO5)C(=O)O3)c21 — MIC (ATCC 29213): 0.008 µg/mL
Cl.O[C@]12C=C(c3nccc4c3[nH]c3ccccc34)[C@@H]3CCN(CCCC/C=C\CC1)C[C@@]31C[C@@H]3/C=C\CCCCN3[C@H]12 — MIC (growth; ATCC 43300 methicillin-resistant): 20 µg/mL
c1ccc(CCOC2CCCc3c2[nH]c2ccccc32)cc1 (stereo not drawn) — MIC (broth microdilution; SA113 ΔtarO): > 16 µg/mL
CC[C@H](C)[C@H](NC(=O)[C@H](CC(C)C)NC(=O)[C@H](CCCNC(=N)N)NC(=O)[C@@H](N)CCCNC(=N)N)C(=O)N[C@@H](CCCNC(=N)N)C(=O)N[C@@H](CCCCN)C(=O)N[C@@H](CC(C)C)C(=O)N[C@@H](CCCCN)C(=O)NCC(=O)N[C@@H](CC(C)C)C(=O)N[C@@H](CCCCN)C(=O)N[C@@H](CCCCN)C(=O)N[C@@H](Cc1ccc(O)cc1)C(=O)N[C@@H](CC(C)C)C(=O)N[C@@H](Cc1ccc(O)cc1)C(=O)N[C@@H](Cc1ccccc1)C(=O)N[C@@H](CCCCN)C(=O)N[C@@H](CC(C)C)C(=O)N[C@@H](CCC(N)=O)C(=O)N[C@@H](CC(C)C)C(=O)N[C@@H](CC(C)C)C(=O)N[C@@H](CCCCN)C(=O)N[C@@H](CCCCN)C(N)=O — MIC (CCARM 3090, methicillin-resistant, Mueller-Hinton broth; 24 h): 8 µM
C[C@@H](O)[C@H](NC(=O)[C@H](Cc1ccccc1)NC(=O)[C@H](Cc1c[nH]c2ccccc12)NC(=O)[C@H](Cc1ccccc1)NC(=O)[C@@H](NC(=O)[C@H](Cc1ccccc1)NC(=O)[C@H](CCCNC(=N)N)NC(=O)[C@@H](N)CCCNC(=N)N)[C@@H](C)O)C(=O)N[C@@H](Cc1ccccc1)C(=O)N[C@@H](CCCNC(=N)N)C(=O)N[C@@H](CCCNC(=N)N)C(N)=O — MIC (broth microdilution; 29213, Mueller-Hinton broth; 24 h, 37 °C, lowest concentration, 95% inhibition, added: BSA): 128 µM
CC[C@H](C)[C@H](NC(=O)CN)C(=O)NCC(=O)N[C@@H](CCCCN)C(=O)N[C@@H](Cc1ccccc1)C(=O)N[C@@H](CC(C)C)C(=O)N[C@@H](CCCCN)C(=O)N[C@@H](CCCCN)C(=O)N[C@@H](C)C(=O)N[C@@H](CCCCN)C(=O)N[C@@H](CCCCN)C(=O)N[C@@H](Cc1ccccc1)C(=O)NCC(=O)N[C@@H](CCCCN)C(=O)N[C@@H](C)C(=O)N[C@@H](Cc1ccccc1)C(=O)N[C@H](C(=O)N[C@@H](CCCCN)C(=O)N[C@H](C(=O)N[C@@H](CC(C)C)C(=O)N[C@@H](CCCCN)C(=O)N[C@@H](CCCCN)C(N)=O)[C@@H](C)CC)C(C)C — MIC (broth dilution; ATCC 25923, Mueller-Hinton broth; 24 h, 37 °C): 25 µM
CC[C@H](C)[C@H](NC(=O)[C@H](Cc1c[nH]c2ccccc12)NC(=O)[C@@H](NC(=O)[C@H](Cc1ccc(O)cc1)NC(=O)[C@@H]1CCCN1C(=O)[C@@H](NC(=O)[C@H](C)N)[C@@H](C)CC)[C@@H](C)CC)C(=O)N[C@@H](Cc1ccc(O)cc1)C(=O)N[C@@H](CCCNC(=N)N)C(=O)N[C@@H](CC(C)C)C(=O)N[C@@H](CC(C)C)C(=O)N[C@@H](CCCNC(=N)N)C(=O)N[C@@H](CCCCN)C(=O)NCC(N)=O — MIC (broth microdilution; ATCC 19609; 18 h, 37 °C): 15 µM
CC[C@H](C)[C@H](NC(=O)[C@H](C)NC(=O)[C@H](CCCNC(=N)N)NC(=O)[C@H](CCCNC(=N)N)NC(=O)[C@@H](N)CCCNC(=N)N)C(=O)N[C@@H](CO)C(=O)NCC(=O)N[C@@H](CO)C(=O)N[C@@H](CC(C)C)C(=O)N[C@H](C(=O)N[C@H](C(=O)N[C@@H](CC(C)C)C(=O)N[C@@H](Cc1ccccc1)C(=O)NCC(=O)N[C@@H](Cc1ccc(O)cc1)C(=O)N[C@@H](CCCNC(=N)N)C(=O)N[C@@H](CCCNC(=N)N)C(=O)N[C@@H](CCCNC(=N)N)C(N)=O)[C@@H](C)O)C(C)C — MIC (broth microdilution; ATCC 29213; highest value reported): 64 µM
CC[C@H](C)[C@H](NC(=O)[C@H](CCCCN)NC(=O)[C@H](CC(=O)O)NC(=O)[C@H](CC(C)C)NC(=O)[C@@H](NC(=O)[C@H](CC(N)=O)NC(=O)[C@H](CC(C)C)NC(=O)[C@@H](NC(=O)[C@H](Cc1ccccc1)NC(=O)[C@H](CCCCN)NC(=O)[C@H](CCCCN)NC(=O)CNC(=O)[C@H](C)NC(=O)[C@H](CC(N)=O)NC(=O)[C@H](CCCCN)NC(=O)[C@H](Cc1ccccc1)NC(=O)[C@H](CC(N)=O)NC(=O)[C@H](CCC(=O)O)NC(=O)[C@H](Cc1c[nH]c2ccccc12)NC(=O)[C@H](CC(C)C)NC(=O)[C@@H](N)CO)[C@@H](C)CC)[C@@H](C)CC)C(=O)N[C@@H](CCCNC(=N)N)C(N)=O — MIC (ATCC 6538; overnight, 37 °C, added: 1 mM MgCl2): 2 µM
CN[C@H](CC(C)C)C(=O)N[C@H]1C(=O)N[C@@H](CC(N)=O)C(=O)N[C@H]2C(=O)N[C@H]3C(=O)N[C@H](C(=O)N[C@H](C(=O)O)c4cc(O)cc(O)c4-c4cc3ccc4O)[C@H](O)c3ccc(c(Cl)c3)Oc3cc2cc(c3O[C@@H]2O[C@H](CO)[C@@H](O)[C@H](O)[C@H]2O[C@H]2C[C@](C)(N)[C@H](O)[C@H](C)O2)Oc2ccc(cc2Cl)[C@H]1O — MIC (CRB, PBP4 deletion): 2 µg/mL
CC[C@H](C)[C@H](NC(=O)CN)C(=O)NCC(=O)N[C@@H](C)C(=O)N[C@H](C(=O)N[C@@H](CC(C)C)C(=O)N[C@@H](CCCCN)C(=O)N[C@H](C(=O)N[C@@H](CC(C)C)C(=O)N[C@H](C(=O)N[C@H](C(=O)NCC(=O)N[C@@H](CC(C)C)C(=O)N1CCC[C@H]1C(=O)N[C@@H](C)C(=O)N[C@@H](CC(C)C)C(=O)N[C@H](C(=O)N[C@@H](CO)C(=O)N[C@@H](Cc1c[nH]c2ccccc12)C(=O)N[C@H](C(=O)N[C@@H](CCCCN)C(=O)N[C@@H](CCCNC(=N)N)C(=O)N[C@@H](CCCCN)C(=O)N[C@@H](CCCNC(=N)N)C(=O)N[C@@H](CCC(N)=O)C(=O)N[C@@H](CCC(N)=O)C(N)=O)[C@@H](C)CC)[C@@H](C)CC)[C@@H](C)O)[C@@H](C)O)C(C)C)C(C)C — MIC (broth microdilution, MH medium; KCTC 1621; 16 h, 37 °C): 4 µM
